Experimental data collected from several papers.
Compare with care: the assays were run in different laboratories.
Organism: Pseudomonas aeruginosa

For `CC(C)(C)OCC1NC(=O)C(C(=O)NC(C(=O)NC2C(=O)N3C2SC(C)(C)C3C(=O)O)c2ccccc2)=C1O` (centres unmarked), the MIC was 25 µg/mL (pqsE mutant).
For `NC[C@H]1O[C@H](O[C@H]2[C@H](O)[C@@H](O[C@H]3O[C@H](CO)[C@@H](O)[C@H](N)[C@H]3O)[C@H](N)C[C@@H]2N)[C@H](N)C[C@@H]1O`, the MIC was 2 µg/mL (expressing H6-MBP-CSP2 or R169A mutant; 24 h, with: IPTG 1 mM).
The MIC of `CC1(C)SC2C(NC(=O)C(NC(=O)C3=C(O)C(Cc4ccsc4)NC3=O)c3ccccc3)C(=O)N2C1C(=O)O` (centres unmarked) is reported as 50 µg/mL (pqsE mutant).
For `CC[C@H](C)[C@H](NC(=O)CNC(=O)[C@H](CC(=O)O)NC(=O)[C@H](CCCNC(=N)N)NC(=O)[C@@H](NC(=O)[C@H](CC(N)=O)NC(=O)[C@H](CCCNC(=N)N)NC(=O)CNC(=O)[C@@H](NC(=O)[C@H](CCCCN)NC(=O)[C@H](CCC(=O)O)NC(=O)[C@@H](NC(=O)[C@H](CCCCN)NC(=O)[C@H](CCCCN)NC(=O)[C@H](Cc1ccccc1)NC(=O)[C@@H](NC(=O)[C@H](CCCCN)NC(=O)[C@H](Cc1c[nH]c2ccccc12)NC(=O)[C@@H](N)CCCNC(=N)N)[C@@H](C)CC)[C@@H](C)CC)C(C)C)C(C)C)C(=O)N[C@H](C(=O)N[C@@H](CCCCN)C(=O)N[C@@H](C)C(=O)NCC(=O)N1CCC[C@H]1C(=O)N[C@@H](C)C(=O)N[C@H](C(=O)N[C@@H](C)C(=O)N[C@H](C(=O)N[C@H](C(=O)NCC(=O)N[C@@H](CCC(N)=O)C(=O)N[C@@H](C)C(=O)N[C@@H](C)C(=O)N[C@H](C(=O)N[C@H](C(=O)N[C@H](C(=O)N[C@@H](CCCCN)C(N)=O)C(C)C)C(C)C)[C@@H](C)O)C(C)C)C(C)C)C(C)C)[C@@H](C)CC`, the MIC was 4 µM (KCCM 11328, Mueller-Hinton broth; 16 h, 37 °C; growth inhibition over 99%).
For `CC[C@H](C)[C@H](NC(=O)[C@H](CCCCN)NC(=O)[C@H](CCCCN)NC(=O)CNC(=O)[C@H](CCCCN)NC(=O)[C@H](CC(C)C)NC(=O)[C@H](CCCCN)NC(=O)[C@H](CCCNC(=N)N)NC(=O)[C@@H](NC(=O)[C@H](CC(C)C)NC(=O)[C@H](CCCNC(=N)N)NC(=O)[C@@H](N)CCCNC(=N)N)[C@@H](C)CC)C(=O)N[C@@H](Cc1ccc(O)cc1)C(=O)N[C@@H](CC(C)C)C(=O)N[C@@H](Cc1ccc(O)cc1)C(=O)N[C@@H](Cc1ccccc1)C(=O)N[C@@H](CCCCN)C(=O)N[C@@H](CC(C)C)C(=O)N[C@@H](CCC(N)=O)C(=O)N[C@@H](CC(C)C)C(=O)N[C@@H](CC(C)C)C(=O)N[C@@H](CCCCN)C(=O)N[C@@H](CCCCN)C(N)=O`, the MIC was 8 µM (KCTC 1637, Mueller-Hinton broth; 24 h).
`CC[C@H](C)[C@H](NC(=O)[C@H](CC(C)C)NC(=O)[C@H](CCCCN)NC(=O)[C@@H](NC(=O)[C@H](C)NC(=O)[C@H](CCC(=O)O)NC(=O)[C@H](Cc1c[nH]cn1)NC(=O)[C@@H](NC(=O)[C@H](CCCCN)NC(=O)[C@H](CCC(N)=O)NC(=O)[C@H](Cc1ccccc1)NC(=O)[C@@H](N)C(C)C)[C@@H](C)CC)[C@@H](C)CC)C(N)=O` gave an MIC of > 128 µM (broth microdilution; 4007 resistant; 18 h, 37 °C).
`CC(C)CC1NC(=O)C(C(=O)NC(C(=O)NC2C(=O)N3C2SC(C)(C)C3C(=O)O)c2ccccc2)=C1O` (centres unmarked) gave an MIC of 25 µg/mL (pqsE mutant).
With `CC[C@H](C)[C@H](NC(=O)[C@H](CCCCN)NC(=O)[C@@H]1CCCN1C(=O)[C@H](CCCNC(=N)N)NC(=O)[C@H](Cc1ccc(O)cc1)NC(=O)[C@H](CCCNC(=N)N)NC(=O)[C@H](CCCNC(=N)N)NC(=O)[C@@H](NC(=O)[C@H](CCCNC(=N)N)NC(=O)[C@H](CCCNC(=N)N)NC(=O)[C@H](CC(C)C)NC(=O)[C@H](Cc1ccccc1)NC(=O)[C@H](CCCNC(=N)N)NC(=O)[C@H](CO)NC(=O)[C@H](Cc1ccccc1)NC(=O)[C@@H](N)CCCNC(=N)N)C(C)C)C(=O)N[C@@H](CO)C(=O)N[C@@H](Cc1ccccc1)C(=O)N[C@@H](CC(N)=O)C(=O)N[C@@H](CC(C)C)C(=O)N[C@@H](CCC(=O)O)C(=O)N1CCC[C@H]1C(=O)N[C@@H](Cc1ccccc1)C(=O)N[C@@H](Cc1ccccc1)C(=O)N[C@@H](CCCCN)C(=O)N[C@@H](Cc1ccccc1)C(=O)O` the MIC was 2.54 µM (broth microdilution; ATCC 27853, Mueller-Hinton broth; 16 to 20 h, 37 °C).
For `CC[C@H](C)[C@H](NC(=O)CNC(=O)[C@H](CC(=O)O)NC(=O)[C@H](CCCNC(=N)N)NC(=O)[C@@H](NC(=O)[C@H](CC(N)=O)NC(=O)[C@H](CCCNC(=N)N)NC(=O)CNC(=O)[C@@H](NC(=O)[C@H](CCCCN)NC(=O)[C@H](CCC(=O)O)NC(=O)[C@@H](NC(=O)[C@H](CCCCN)NC(=O)[C@H](CCCCN)NC(=O)[C@H](C)NC(=O)[C@@H](NC(=O)[C@H](CCCCN)NC(=O)[C@H](C)NC(=O)[C@@H](N)CCCNC(=N)N)[C@@H](C)CC)[C@@H](C)CC)C(C)C)C(C)C)C(=O)N[C@H](C(=O)N[C@@H](CCCCN)C(=O)N[C@@H](C)C(=O)NCC(=O)N1CCC[C@H]1C(=O)N[C@@H](C)C(=O)N[C@H](C(=O)N[C@@H](C)C(=O)N[C@H](C(=O)N[C@H](C(=O)NCC(=O)N[C@@H](CCC(N)=O)C(=O)N[C@@H](C)C(=O)N[C@@H](C)C(=O)N[C@H](C(=O)N[C@H](C(=O)N[C@H](C(=O)N[C@@H](CCCCN)C(N)=O)C(C)C)C(C)C)[C@@H](C)O)C(C)C)C(C)C)C(C)C)[C@@H](C)CC`, the MIC was 16 µM (KCCM 11328, Mueller-Hinton broth; 16 h, 37 °C; growth inhibition over 99%).
With `CCCCCCCCCC(=O)N[C@@H](Cc1c[nH]c2ccccc12)C(=O)N[C@H](CC(N)=O)C(=O)N[C@@H](CC(=O)O)C(=O)N[C@@H]1C(=O)NCC(=O)N[C@@H](CCCN)C(=O)N[C@@H](CC(=O)O)C(=O)N[C@H](C)C(=O)N[C@@H](CC(=O)O)C(=O)NCC(=O)N[C@H](CO)C(=O)N[C@@H]([C@H](C)CC(=O)O)C(=O)N[C@@H](CC(=O)c2ccccc2N)C(=O)O[C@@H]1C` the MIC was > 100 µM (ATCC 27853; 24 h).
`CC[C@H](C)[C@H](NC(=O)[C@H](CCCCN)NC(=O)[C@H](CCCCN)NC(=O)[C@H](CCCCN)NC(=O)[C@H](CCCCN)NC(=O)[C@H](CCCCN)NC(=O)[C@@H](N)CCCCN)C(=O)N[C@@H](CO)C(=O)N[C@@H](Cc1ccccc1)C(=O)N[C@@H](CC(C)C)C(=O)NCC(=O)N[C@@H](CO)C(=O)N[C@@H](CCCCN)C(=O)N[C@H](C(=O)N[C@H](C(=O)N[C@H](C(=O)N[C@@H](CC(C)C)C(=O)N[C@@H](CC(C)C)C(=O)N[C@@H](CCCCN)C(=O)N[C@@H](CCCNC(=N)N)C(N)=O)C(C)C)C(C)C)C(C)C` has an MIC of 16 µM (broth microdilution; ATCC 27853; highest value reported).
With `Cn1c(=O)cnc2ccc(F)c(CCNC[C@H]3CN(c4cnc5c(n4)NC(=O)CO5)C(=O)O3)c21` the MIC was 0.5 µg/mL (ATCC 27853).
`CC1(C)S[C@@H]2[C@H](NC(=O)C(C(=O)O)c3ccccc3)C(=O)N2[C@H]1C(=O)O` (some centres unmarked) gave an MIC of 12.5 µg/mL (pvdA mutant).
For `CC[C@H](C)[C@H](NC(=O)[C@H](Cc1c[nH]c2ccccc12)NC(=O)[C@@H](NC(=O)[C@H](Cc1c[nH]c2ccccc12)NC(=O)[C@@H]1CCCN1C(=O)[C@@H](NC(=O)[C@H](C)N)[C@@H](C)CC)[C@@H](C)CC)C(=O)N[C@@H](Cc1c[nH]c2ccccc12)C(=O)N[C@@H](CCCNC(=N)N)C(=O)N[C@@H](CC(C)C)C(=O)N[C@@H](CC(C)C)C(=O)N[C@@H](CCCNC(=N)N)C(=O)N[C@@H](CCCCN)C(=O)NCC(N)=O`, the MIC was 15 µM (broth microdilution; PAO1; 18 h, 37 °C).
